Published values of several laboratories.
Compare with care: the assays were run in different laboratories. Several values in a cell are separate wells, animals, samples, runs or records. ± gives the spread as reported.

SMILES = COc1ccc([C@@H](O)c2cc(-c3ncnc4cc(N5CCOCC5)ccc34)c(F)cc2Cl)nn1; test system = locally advanced rectal cancer patients; setting = 100 mg, added: capecitabine and radiotherapy; measurement = decreased appetite TEAE incidence; result = 17%
SMILES = CCCCC1=NC2(CCCC2)C(=O)N1Cc1ccc(-c2ccccc2S(=O)(=O)Nc2noc(C)c2C)c(COCC)c1; test system = healthy adult volunteers, plasma; setting = oral, 800 mg, single dose, fasted, crushed tablet; measurement = Cmax; result = 8.62 µg/mL
SMILES = CN1CC(Oc2cnc(C#N)cc2-c2ccn3nc(NC(=O)C4CC4)cc3c2)C1; test system = Rag2-/- mouse, female, anti-CD40 colitis, plasma; setting = oral, 80 mg/kg twice daily, 24 h; measurement = trough plasma concentration; result = 1560 nM
SMILES = CCN1CCN(Cc2ccc(NC(=O)c3ccc(C)c(NC(=O)c4cncc(-c5cccs5)c4)c3)cc2C(F)(F)F)CC1; test = LC-MS/MS; test system = C57BL/6 mouse, plasma; setting = intraperitoneal, 30 mg/kg single dose, 6 h; measurement = plasma concentration; result = 0.101 µg/mL and 0.192 µg/mL and 0.219 µg/mL
SMILES = Cn1cc(-c2cn3nccc3c(-c3cnn([C@]4(CC#N)C[C@@H](C#N)C4)c3)n2)cn1; test system = healthy humans fasted, plasma; setting = oral, 1600 mg single dose, geometric mean; measurement = dose-normalised AUC(0-t); result = 6.2 ng·h/mL/mg
SMILES = O=C(/C=C/CCc1ccc(O)cc1)/C=C/c1ccc(O)cc1; test system = nude mouse MCF7 xenograft; setting = 20 mg/kg, day 0; measurement = body weight; result = 19.9 ± 0.76 g
SMILES = Cc1ccc2c(c1)nc(/C=C/c1cccc3cccnc13)n2-c1cccc(OCCCN2CCN(C)CC2)c1; test system = male Sprague-Dawley rat; setting = oral, 10 mg/kg, 6 h; measurement = plasma concentration; result = 0.498 ± 0.0389 µM
SMILES = CCc1cc(C(=O)NC)c2nccc(N3CCc4c(cc(Cn5ccnc5)cc4-c4cn(C)nc4C(F)(F)F)C3=O)c2c1; test system = Sprague Dawley rats; setting = oral, 50 mg/kg once daily, 7 days; measurement = serum ALP activity; result = 408 ± 74.2 U/L
SMILES = C=CC(=O)N1CCC(Oc2cc3c(Nc4ccc(Cl)c(Cl)c4F)ncnc3cc2OC)CC1; test system = Sprague-Dawley rat male, plasma; setting = oral, 2 mg/kg, added: schisandrin A 20 mg/kg daily 1 weeks pretreatment; scale = reference: no pretreatment; measurement = CLz/F ratio; result = 0.43 fold
SMILES = CCCCC/C=C\C/C=C\CCCCCCCCC(CCCCCCCC/C=C\C/C=C\CCCCC)OC(=O)CCCN(C)C; setting = pH 7.5, formulated; measurement = zeta potential; result = 0.55 mV
SMILES = CC(C)(C(=O)N1CCOc2c(C#N)cncc2C1)C(F)F; test = measured: abdominal pain; test system = human; setting = oral, 20 mg once daily, 14 days, multiple ascending dose; measurement = subjects with adverse event; result = 0%
SMILES = Cc1cc(/C=C/C#N)cc(C)c1Nc1ccnc(Nc2ccc(C#N)cc2)n1; test system = human patients, all-treated set; setting = intramuscular, dose not given, long-acting injection, median; measurement = time to injection-site reaction onset; result = 0 days
SMILES = COc1cc(C=CC(=O)O)ccc1O[C@@H]1O[C@H](C(=O)O)[C@@H](O)[C@H](O)[C@H]1O; test system = human, cerebrospinal fluid; setting = concentration not given, mean; measurement = CSF concentration; result = 18.1 nM
SMILES = COc1ccc2[nH]c([S+]([O-])Cc3ncc(C)c(OC)c3C)nc2c1 (stereo not drawn); test system = healthy male humans; setting = concentration not given, required by protocol; measurement = procedure-related adverse events; result = 0%
SMILES = O=C(CSc1nnc(-c2ccccc2O)n1-c1ccccc1)Nc1cccc(C(=O)O)c1; test system = octanol/buffer; setting = pH 11; measurement = logP; result = -1.65
SMILES = CO[C@H]1C[C@@H]2CC[C@@H](C)[C@@](O)(O2)C(=O)C(=O)N2CCCC[C@H]2C(=O)O[C@H]([C@H](C)C[C@@H]2CC[C@@H](O)[C@H](OC)C2)CC(=O)[C@H](C)/C=C(\C)[C@@H](O)[C@@H](OC)C(=O)[C@H](C)C[C@H](C)/C=C/C=C/C=C/1C; test system = healthy adult horses; setting = oral, 0.06 mg/kg, 6 h; measurement = rectal temperature; result = 37.5 ± 0.4 °C
SMILES = COc1cc(OC)c(NC(=O)CSc2nnc(-c3ccncc3)n2-c2ccccc2)cc1Cl; test system = octanol/buffer; setting = pH 11, known kinase inactives set; measurement = logP; result = 3.11
SMILES = C=CC(=O)Nc1cc(Nc2nccc(-c3cn(C4CC4)c4ccccc34)n2)c(OC)cc1N(C)CCN(C)C; test system = BALB/c nude mouse, LU0387 xenograft, blood; setting = oral, 40 mg/kg; measurement = RDW-SD; result = 24.4 ± 0.474 fL
SMILES = CNC(=O)c1cc(Oc2ccc(NC(=O)Nc3ccc(Cl)c(C(F)(F)F)c3)c(F)c2)ccn1; test system = mouse plasma; setting = 75 ng/mL, 6 months, -80 °C; measurement = long-term stability accuracy; result = 98.5%
SMILES = O=C(Nc1cnccc1Cl)N1CCN(Cc2ccc3c(c2)OC(F)(F)O3)CC1; test = multiple ascending dose; test system = young men; setting = 25 mg, treatment-emergent adverse events; measurement = injection site pain incidence; result = 33.3%
SMILES = Cc1cc(-c2nccc3c2ccn3CC(=O)Nc2ccc(-c3cnccn3)cn2)ccn1; test system = human; setting = 20 mg once daily, multiple ascending dose; measurement = post-procedural inflammation; result = 11.1%

Excerpt of the above:
SMILES = CNC(=O)c1cc(Oc2ccc(NC(=O)Nc3ccc(Cl)c(C(F)(F)F)c3)c(F)c2)ccn1; test system = mouse plasma; setting = 75 ng/mL, 6 months, -80 °C; measurement = long-term stability accuracy; result = 98.5%
SMILES = O=C(Nc1cnccc1Cl)N1CCN(Cc2ccc3c(c2)OC(F)(F)O3)CC1; test = multiple ascending dose; test system = young men; setting = 25 mg, treatment-emergent adverse events; measurement = injection site pain incidence; result = 33.3%
SMILES = Cc1cc(-c2nccc3c2ccn3CC(=O)Nc2ccc(-c3cnccn3)cn2)ccn1; test system = human; setting = 20 mg once daily, multiple ascending dose; measurement = post-procedural inflammation; result = 11.1%
